Published values gathered from unrelated publications.
A part holds a random share of what one study measured.

Series 1 — method: protein-binding microarray; form: double-stranded DNA, one strand shown; matrix: in vitro; concentration: 940 nM top; notes: 60-bp whole probe; with: salmon DNA 0.4 mg/ml; baseline: random background probes; reading: higher = stronger binding; measurement: fitted relative affinity; constant ends, left off below: GCCTAGCACT … GTCTTGATTCGCTTGACGCTGCTG
Target: Interferon regulatory factor 5, full length, phosphomimetic (IRF5, Homo sapiens, UniProt Q13568-2, residues 1-514, S451D/S453D/S456D/S462D)
CATGTTTCCTCTTTCAACTGTGCTAG: 1.4 z-score
CATCTACAGGGTTTCACACTGTGCTA: 0.705 z-score
TTTTTTTTTGTATTTTTGAGTGCTAG: 1.42 z-score
TCACTCTCTGCTTGTATCTGTGCTAG: 2.39 z-score
TCTCCATGGGTATGGCCTAGTGCTAG: -0.268 z-score
TTGCATTGCTTCTATAGGCGTGCTAG: -0.0834 z-score

Series 2 — method: universal PBM; form: double-stranded DNA, one strand shown; matrix: in vitro; concentration: not given; reading: higher = stronger binding; measurement: E-score
Target: Sal-like protein 4, full length isoform B (SALL4, Homo sapiens, UniProt Q9UJQ4-2, residues 1-616)
Notes: 8-mer, flanks averaged, mean of replicates
TGTAGACA: 0.119
CAACGCTC: -0.0981
CTAAAATC: -0.00983
GGCATGTA: 0.112
ATCTGAAG: 0.0686
AAGGCTGT: -0.187

Series 3 — method: protein-binding microarray; form: double-stranded DNA, one strand shown; matrix: in vitro; concentration: 0.8 µM; notes: whole 60-bp probe, no competitor; reading: higher = stronger binding; measurement: fluorescence intensity
Target: Centromere-binding protein 1, full length, N-terminal tag (CBF1, Saccharomyces cerevisiae, UniProt P17106, residues 1-351)
Sequence of UniProt P17106 (whole entry, looked up): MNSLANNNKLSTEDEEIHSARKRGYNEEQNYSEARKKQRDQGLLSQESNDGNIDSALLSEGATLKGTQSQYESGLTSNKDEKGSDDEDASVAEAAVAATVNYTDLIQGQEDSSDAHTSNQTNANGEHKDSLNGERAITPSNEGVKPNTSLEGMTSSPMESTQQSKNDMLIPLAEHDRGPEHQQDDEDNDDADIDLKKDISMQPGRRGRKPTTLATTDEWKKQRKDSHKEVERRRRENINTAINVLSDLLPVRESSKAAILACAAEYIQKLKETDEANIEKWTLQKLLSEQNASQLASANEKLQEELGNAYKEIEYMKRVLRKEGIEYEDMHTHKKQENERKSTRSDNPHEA
GAATATTTACGCCATCACGCTCACCTTCTTCCCTAGGTCTTGATTCGCTTGACGCTGCTG: 626 a.u.
CTATGCTGTATCGCCCACGTTCTTGTTGTAGATTTCGTCTTGATTCGCTTGACGCTGCTG: 566 a.u.
GAACAATTTTATGACCGCGTGTTTTCGAATTTTTAGGTCTTGATTCGCTTGACGCTGCTG: 676 a.u.
GAAGAAGTCCTTACTCAGCTGAAAAAGAGAAGCTAGGTCTTGATTCGCTTGACGCTGCTG: 535 a.u.

Other studies, line by line
PhoQ, residues 284 288 289 292 302 303 TLASMF
fold induction (PhoP, residues 12 14 15 18 19 LHSVW (Escherichia coli, UniProt P23836); Sort-seq, item: YFP reporter; E. coli; PhoQ-PhoP variant library, with: 10 µM Mg2+; baseline: high Mg2+ state, higher = stronger signaling): 3.22
